Published values collected from several papers.
Lines come from different studies, so protocols differ. Numbers after ± are the reported error.

Structure (SMILES)	assay	test system	setting	how to read	quantity	result
CCCC[C@H](NC(=O)CNC(=O)CNC(=O)c1ccc(NN)nc1)C(=O)N[C@H]1CC(=O)NCCCC[C@@H](C(N)=O)NC(=O)[C@H](Cc2c[nH]c3ccccc23)NC(=O)[C@H](CCCNC(=N)N)NC(=O)[C@@H](Cc2ccccc2)NC(=O)[C@H](Cc2c[nH]cn2)NC1=O [technetium-99m labelled]	–	C57 mouse, B16/F1 melanoma	2 h, with: L-lysine	relative to: tumour over lung	uptake ratio	82.9
N=C(N)NCCC[C@@H]1NC(=O)[C@H](CCCCNC(=O)CCOCCOCCOCCOCCNC(=O)CC[C@H](NC(=O)CCOCCOCCOCCOCCNC(=O)c2ccc(NN)nc2)C(=O)NCCOCCOCCOCCOCCC(=O)NCCCC[C@@H]2NC(=O)[C@@H](Cc3ccccc3)NC(=O)[C@H](CC(=O)O)NC(=O)CNC(=O)[C@H](CCCNC(=N)N)NC2=O)NC(=O)[C@@H](Cc2ccccc2)NC(=O)[C@H](CC(=O)O)NC(=O)CNC1=O [technetium-99m labelled]	–	female athymic nude mice, U-87 MG glioma xenograft, tumour and lungs	intravenous, 2.5 µCi, 60 min	relative to: tumour over lungs	tissue-to-tissue ratio	4.36 ± 0.54
CC(C)C[C@@H]1NC(=O)[C@H](C(C)C)NC(=O)[C@H](CO)NC(=O)CNC(=O)CNC(=O)[C@H](CCCNC(=N)N)NC(=O)[C@@H]2CCCN2C(=O)[C@@H](NC(=O)CC[C@H](NC(=O)c2ccc(N(C)Cc3cnc4nc(N)nc(N)c4n3)cc2)C(=O)O)C(C)(C)SSC[C@@H](C(=O)O)NC(=O)CNC(=O)[C@H]([C@@H](C)O)NC(=O)[C@H](C(C)C)NC1=O	HPLC	Carbonate buffer	pH 10.0, 70 °C	–	degradation rate constant	0.023 h⁻¹
N=C(N)NCCC[C@@H]1NC(=O)[C@H](CCCCNC(=O)CCOCCOCCOCCOCCNC(=O)CC[C@H](NC(=O)CCOCCOCCOCCOCCNC(=O)CC[C@H](NC(=O)CN2CCN(CC(=O)O)CCN(CC(=O)O)CCN(CC(=O)O)CC2)C(=O)NCCOCCOCCOCCOCCC(=O)N[C@@H](CCC(=O)NCCOCCOCCOCCOCCC(=O)NCCCC[C@@H]2NC(=O)[C@@H](Cc3ccccc3)NC(=O)[C@H](CC(=O)O)NC(=O)CNC(=O)[C@H](CCCNC(=N)N)NC2=O)C(=O)NCCOCCOCCOCCOCCC(=O)NCCCC[C@@H]2NC(=O)[C@@H](Cc3ccccc3)NC(=O)[C@H](CC(=O)O)NC(=O)CNC(=O)[C@H](CCCNC(=N)N)NC2=O)C(=O)NCCOCCOCCOCCOCCC(=O)NCCCC[C@@H]2NC(=O)[C@@H](Cc3ccccc3)NC(=O)[C@H](CC(=O)O)NC(=O)CNC(=O)[C@H](CCCNC(=N)N)NC2=O)NC(=O)[C@@H](Cc2ccccc2)NC(=O)[C@H](CC(=O)O)NC(=O)CNC1=O [indium-111 labelled]	–	athymic nude mice, female, U-87 MG glioma xenograft, U-87 MG tumour	intravenous, 3 µCi, 1 h	–	tissue uptake	11.1 ± 2.38 %ID/g
C=Cc1c(C)c2cc3nc(c4c5[nH]c(cc6nc(cc1[nH]2)C(C)=C6CC)c(C)c5C(=O)C4)[C@@H](CCC(=O)NCC(=O)N1CCC[C@H]1C(=O)N[C@@H](CC(C)C)C(=O)NCC(=O)N[C@@H](Cc1ccccc1)C(=O)N[C@@H](CCCNC(=N)N)C(=O)N[C@H](C(=O)NCC(=O)N[C@@H](CCCCN)C(N)=O)C(C)C)[C@@H]3C	–	C57BL/6J mouse, DMM osteoarthritis model, knee articular cartilage	intra-articular, 6 h	–	penetration depth	50 µm
CC(=O)N[C@@H](CCCCN)C(=O)N[C@@H](CS)C(=O)N[C@@H](CS)C(=O)N[C@@H](Cc1ccc(O)cc1)C(=O)N[C@@H](CO)C(=O)N[C@@H](CC(C)C)C(=O)NCC(=O)NCC(=O)NCC(=O)N[C@@H](CO)C(=O)N[C@@H](CO)C(=O)N[C@@H](CCCCN)C(=O)N[C@@H](Cc1ccc(O)cc1)C(=O)N[C@@H](CCC(N)=O)C(=O)N[C@@H](CO)C(=O)N[C@@H](CC(C)C)C(=O)OCCN(c1ccccc1)C(C)c1cc(C)cn2c(=O)cc(N3CCOCC3)nc12 (stereo partly shown)	–	PBS	5 µM, 4 h, pH 7.5, 37 °C	–	degradation	7%
N=C(N)NCCC[C@@H]1NC(=O)[C@H](CCCCNC(=O)CCOCCOCCOCCOCCNC(=O)CN2CCN(CC(=O)O)CCN(CC(=O)O)CCN(CC(=O)O)CC2)NC(=O)[C@@H](Cc2ccccc2)NC(=O)[C@H](CC(=O)O)NC(=O)CNC1=O [indium-111 labelled]	–	female athymic nude mice, intestine	intravenous, 3 µCi, 24 h, U-87 MG glioma xenograft	–	tissue uptake	0.91 ± 0.33 %ID/g
CC(C)C[C@H](NC(=O)[C@@H]1CCCN1C(=O)[C@H](CCCCN)NC(=O)[C@@H](N)CO)C(=O)N1CCC[C@H]1C(=O)N[C@@H](CCC(=O)O)C(=O)N[C@H](C(=O)N[C@H](C(=O)N[C@@H](CC(=O)O)C(=O)N[C@@H](CCC(=O)O)C(=O)N[C@@H](Cc1ccc(O)cc1)C(=O)N[C@@H](Cc1cn(CCOCCOCCOCCNC(=O)CCc2ccc(O)c(CN(CCN(CC(=O)O)Cc3cc(CCC(=O)NCCCC[C@H](NC(=O)N[C@@H](CCC(=O)O)C(=O)O)C(=O)O)ccc3O)CC(=O)O)c2)nn1)C(=O)O)[C@@H](C)O)C(C)C [gallium-68 labelled]	–	NMRI nu/nu mice, LNCaP tumour, heart	10 MBq, high molar activity	–	standardized uptake value	0.12 g/g
N=C(N)NCCC[C@@H]1NC(=O)[C@H](CCCCNC(=O)CNC(=O)CNC(=O)CNC(=O)CC[C@H](NC(=O)CCOCCOCCOCCOCCNC(=O)CC[C@H](NC(=O)CN2CCN(CC(=O)O)CCN(CC(=O)O)CCN(CC(=O)O)CC2)C(=O)NCCOCCOCCOCCOCCC(=O)N[C@@H](CCC(=O)NCC(=O)NCC(=O)NCC(=O)NCCCC[C@@H]2NC(=O)[C@@H](Cc3ccccc3)NC(=O)[C@H](CC(=O)O)NC(=O)CNC(=O)[C@H](CCCNC(=N)N)NC2=O)C(=O)NCC(=O)NCC(=O)NCC(=O)NCCCC[C@@H]2NC(=O)[C@@H](Cc3ccccc3)NC(=O)[C@H](CC(=O)O)NC(=O)CNC(=O)[C@H](CCCNC(=N)N)NC2=O)C(=O)NCC(=O)NCC(=O)NCC(=O)NCCCC[C@@H]2NC(=O)[C@@H](Cc3ccccc3)NC(=O)[C@H](CC(=O)O)NC(=O)CNC(=O)[C@H](CCCNC(=N)N)NC2=O)NC(=O)[C@@H](Cc2ccccc2)NC(=O)[C@H](CC(=O)O)NC(=O)CNC1=O [indium-111 labelled]	–	female athymic nude mice, liver	intravenous, 3 µCi, 1 h, U-87 MG glioma xenograft	–	tissue uptake	2.36 ± 0.27 %ID/g
CCCC[C@H](NC(=O)[C@H](Cc1cccs1)NC(=O)[C@H](Cc1c[nH]cn1)NC(=O)CCNC(=O)[C@@H](NC(=O)[C@H](C)NC(=O)[C@H](Cc1c[nH]c2ccccc12)NC(=O)[C@H](CCC(N)=O)NC(=O)[C@H](Cc1cccs1)NC(=O)CN1CCC(NC(=O)CN(CCN(CCN(CC(=O)O)CC(=O)O)CC(=O)O)CC(=O)O)CC1)C(C)C)C(N)=O [indium-111 labelled]	radio-HPLC	male Swiss nu/nu mice, blood	intravenous, 1 nmol, 15 min	–	intact peptide	2.8 ± 0.4%
CSCC[C@H](NC(=O)[C@H](CC(C)C)NC(=O)[C@H](Cc1c[nH]cn1)NC(=O)CNC(=O)[C@@H](NC(=O)[C@H](C)NC(=O)[C@H](Cc1c[nH]c2ccccc12)NC(=O)[C@H](CCC(N)=O)NC(=O)CCCCCNC(=O)CNC(=O)CNC(=O)CNC(=O)CSC(C)=O)C(C)C)C(N)=O [technetium-99m labelled]	–	nude mouse, PC-3 xenograft, muscle	90 min	–	tissue uptake	0.25 ± 0.04 %ID/g
N=C(N)NCCC[C@@H]1NC(=O)[C@H](CCCCNC(=O)CC[C@H](NC(=O)CCOCCOCCOCCOCCNC(=O)CN2CCN(CC(=O)O)CCN(CC(=O)O)CCN(CC(=O)O)CC2)C(=O)NCCCC[C@@H]2NC(=O)[C@@H](Cc3ccccc3)NC(=O)[C@H](CC(=O)O)NC(=O)CNC(=O)[C@H](CCCNC(=N)N)NC2=O)NC(=O)[C@@H](Cc2ccccc2)NC(=O)[C@H](CC(=O)O)NC(=O)CNC1=O [indium-111 labelled]	–	athymic nude mice, female, U-87 MG glioma xenograft, tumour and liver	intravenous, 24 h	relative to: tumour over liver	tumour to tissue ratio	2.04 ± 0.4
CCCC[C@@H](NC(=O)[C@H](Cc1c[nH]c2ccccc12)NC(=O)[C@@H](N)CSC1CC(=O)N(CCCCCC(=O)NN=C(CO)[C@]2(O)Cc3c(O)c4c(c(O)c3[C@@H](O[C@H]3C[C@H](N)[C@H](O)[C@H](C)O3)C2)C(=O)c2c(OC)cccc2C4=O)C1=O)C(=O)N[C@@H](CCC(=O)O)C(=O)N[C@@H](C)C(=O)N[C@@H](C)C(=O)N[C@@H](Cc1ccc(O)cc1)C(=O)N[C@@H](CCC(N)=O)C(=O)N[C@H](CCCNC(=N)N)C(=O)N[C@@H](Cc1ccccc1)C(=O)N[C@@H](CC(C)C)C(N)=O (stereo partly shown)	–	acetonitrile/water	one month, -20 °C	–	stability	stable
C[C@@H](O)[C@@H]1NC(=O)[C@H](CCCCN)NC(=O)[C@@H](Cc2c[nH]c3ccccc23)NC(=O)[C@H](Cc2ccc(O)cc2)NC(=O)[C@@H](NC(=O)[C@@H](Cc2ccccc2)NC(=O)c2ccc(C[C@H]3CN(CC(=O)O)CCN(CC(=O)O)CCN(CC(=O)O)CCN3CC(=O)O)cc2)CSSC[C@@H](C(=O)N[C@H](CO)[C@@H](C)O)NC1=O [gallium-67 labelled]	–	ICR mouse, spleen and bone	intravenous, dose not given, 1, 3 and 1 h	relative to: [67Ga]Ga-DOTATOC	biodistribution	no effect
N=C(N)NCCC[C@@H]1NC(=O)[C@H](CCCCNC(=O)CC[C@H](NC(=O)CCOCCOCCOCCOCCNC(=O)CC[C@H](NC(=O)CN2CCN(CC(=O)O)CCN(CC(=O)O)CCN(CC(=O)O)CC2)C(=O)NCCOCCOCCOCCOCCC(=O)N[C@@H](CCC(=O)NCCCC[C@@H]2NC(=O)[C@@H](Cc3ccccc3)NC(=O)[C@H](CC(=O)O)NC(=O)CNC(=O)[C@H](CCCNC(=N)N)NC2=O)C(=O)NCCCC[C@@H]2NC(=O)[C@@H](Cc3ccccc3)NC(=O)[C@H](CC(=O)O)NC(=O)CNC(=O)[C@H](CCCNC(=N)N)NC2=O)C(=O)NCCCC[C@@H]2NC(=O)[C@@H](Cc3ccccc3)NC(=O)[C@H](CC(=O)O)NC(=O)CNC(=O)[C@H](CCCNC(=N)N)NC2=O)NC(=O)[C@@H](Cc2ccccc2)NC(=O)[C@H](CC(=O)O)NC(=O)CNC1=O [indium-111 labelled]	–	athymic nude mice, female, U-87 MG glioma xenograft, U-87 MG tumour	intravenous, 3 µCi, 4 h	–	tissue uptake	8.49 ± 5.28 %ID/g
CCCC[C@H](NC(=O)CCCCCCCNC(=O)c1ccc(NN)nc1)C(=O)N[C@H]1CC(=O)NCCCC[C@@H](C(N)=O)NC(=O)[C@H](Cc2c[nH]c3ccccc23)NC(=O)[C@H](CCCNC(=N)N)NC(=O)[C@@H](Cc2ccccc2)NC(=O)[C@H](Cc2c[nH]cn2)NC1=O [technetium-99m labelled]	–	C57 mouse, B16/F1 melanoma, spleen	intravenous, 4 h	–	uptake	0.32 ± 0.13 %ID/g

For quick reference, copied from above:
Structure (SMILES)	assay	test system	setting	how to read	quantity	result
CC(C)C[C@H](NC(=O)[C@@H]1CCCN1C(=O)[C@H](CCCCN)NC(=O)[C@@H](N)CO)C(=O)N1CCC[C@H]1C(=O)N[C@@H](CCC(=O)O)C(=O)N[C@H](C(=O)N[C@H](C(=O)N[C@@H](CC(=O)O)C(=O)N[C@@H](CCC(=O)O)C(=O)N[C@@H](Cc1ccc(O)cc1)C(=O)N[C@@H](Cc1cn(CCOCCOCCOCCNC(=O)CCc2ccc(O)c(CN(CCN(CC(=O)O)Cc3cc(CCC(=O)NCCCC[C@H](NC(=O)N[C@@H](CCC(=O)O)C(=O)O)C(=O)O)ccc3O)CC(=O)O)c2)nn1)C(=O)O)[C@@H](C)O)C(C)C [gallium-68 labelled]	–	NMRI nu/nu mice, LNCaP tumour, heart	10 MBq, high molar activity	–	standardized uptake value	0.12 g/g
